Assay results pooled from the literature.
Each line is one published result; not all experiments were run side by side. Several values in a cell are separate wells, animals, samples, runs or records. Numbers after ± are the reported error.
TDP1: Tyrosyl-DNA phosphodiesterase 1 (TDP1, Homo sapiens, UniProt Q9NUW8)
Sequence of UniProt Q9NUW8 (whole entry, looked up): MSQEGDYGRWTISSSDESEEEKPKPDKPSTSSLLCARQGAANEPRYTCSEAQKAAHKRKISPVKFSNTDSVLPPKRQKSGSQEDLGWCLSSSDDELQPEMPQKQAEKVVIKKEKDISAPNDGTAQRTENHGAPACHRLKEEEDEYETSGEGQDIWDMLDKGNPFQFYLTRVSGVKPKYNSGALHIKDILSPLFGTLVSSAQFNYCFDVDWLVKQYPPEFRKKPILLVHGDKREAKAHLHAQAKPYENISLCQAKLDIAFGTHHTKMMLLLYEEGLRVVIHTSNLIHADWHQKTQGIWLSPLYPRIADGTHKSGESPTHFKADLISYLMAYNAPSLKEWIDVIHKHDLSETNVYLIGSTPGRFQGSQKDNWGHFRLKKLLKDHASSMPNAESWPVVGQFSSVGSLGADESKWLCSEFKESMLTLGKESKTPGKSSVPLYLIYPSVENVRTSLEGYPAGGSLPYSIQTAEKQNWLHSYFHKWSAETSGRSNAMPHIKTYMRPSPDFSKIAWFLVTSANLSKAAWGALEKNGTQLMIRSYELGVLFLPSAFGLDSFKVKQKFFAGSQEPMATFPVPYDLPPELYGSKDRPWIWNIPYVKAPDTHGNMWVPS
MAP3K21: Mitogen-activated protein kinase kinase kinase 21 (MAP3K21, Homo sapiens, UniProt Q5TCX8)
Sequence of UniProt Q5TCX8 (whole entry, looked up): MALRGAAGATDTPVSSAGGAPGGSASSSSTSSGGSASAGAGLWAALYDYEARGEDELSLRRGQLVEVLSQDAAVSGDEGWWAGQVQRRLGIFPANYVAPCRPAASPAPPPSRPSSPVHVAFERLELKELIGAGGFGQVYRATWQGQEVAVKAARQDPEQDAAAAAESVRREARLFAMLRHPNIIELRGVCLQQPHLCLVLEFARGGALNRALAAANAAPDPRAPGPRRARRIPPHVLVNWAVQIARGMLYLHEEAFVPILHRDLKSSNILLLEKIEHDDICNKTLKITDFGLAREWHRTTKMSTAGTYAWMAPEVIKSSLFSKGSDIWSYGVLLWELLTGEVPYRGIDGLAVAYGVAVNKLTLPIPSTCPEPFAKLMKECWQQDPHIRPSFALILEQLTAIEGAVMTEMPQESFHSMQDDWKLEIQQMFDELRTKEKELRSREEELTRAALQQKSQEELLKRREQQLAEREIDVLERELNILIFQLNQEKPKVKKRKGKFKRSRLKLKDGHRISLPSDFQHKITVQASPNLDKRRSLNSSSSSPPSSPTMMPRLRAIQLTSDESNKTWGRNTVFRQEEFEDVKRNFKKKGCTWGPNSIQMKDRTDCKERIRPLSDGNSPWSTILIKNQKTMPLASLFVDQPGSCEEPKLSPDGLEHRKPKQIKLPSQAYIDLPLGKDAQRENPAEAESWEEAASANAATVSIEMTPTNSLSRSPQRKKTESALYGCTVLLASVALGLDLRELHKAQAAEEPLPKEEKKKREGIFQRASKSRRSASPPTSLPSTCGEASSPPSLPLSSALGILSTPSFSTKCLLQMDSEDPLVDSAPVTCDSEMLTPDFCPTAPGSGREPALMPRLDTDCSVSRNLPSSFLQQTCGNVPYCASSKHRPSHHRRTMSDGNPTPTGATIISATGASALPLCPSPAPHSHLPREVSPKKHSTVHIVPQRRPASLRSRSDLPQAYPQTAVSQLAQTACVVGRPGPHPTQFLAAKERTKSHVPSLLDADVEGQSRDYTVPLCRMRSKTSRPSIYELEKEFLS
ppa: Inorganic pyrophosphatase (ppa, Escherichia coli, UniProt P0A7A9)
Sequence of UniProt P0A7A9 (whole entry, looked up): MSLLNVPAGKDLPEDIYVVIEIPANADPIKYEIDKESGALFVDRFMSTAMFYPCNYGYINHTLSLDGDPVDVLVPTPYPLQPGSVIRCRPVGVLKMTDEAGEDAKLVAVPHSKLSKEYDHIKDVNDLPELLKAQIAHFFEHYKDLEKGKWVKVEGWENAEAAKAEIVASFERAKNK
TACR3: Neuromedin-K receptor (TACR3, Homo sapiens, UniProt P29371)
Sequence of UniProt P29371 (whole entry, looked up): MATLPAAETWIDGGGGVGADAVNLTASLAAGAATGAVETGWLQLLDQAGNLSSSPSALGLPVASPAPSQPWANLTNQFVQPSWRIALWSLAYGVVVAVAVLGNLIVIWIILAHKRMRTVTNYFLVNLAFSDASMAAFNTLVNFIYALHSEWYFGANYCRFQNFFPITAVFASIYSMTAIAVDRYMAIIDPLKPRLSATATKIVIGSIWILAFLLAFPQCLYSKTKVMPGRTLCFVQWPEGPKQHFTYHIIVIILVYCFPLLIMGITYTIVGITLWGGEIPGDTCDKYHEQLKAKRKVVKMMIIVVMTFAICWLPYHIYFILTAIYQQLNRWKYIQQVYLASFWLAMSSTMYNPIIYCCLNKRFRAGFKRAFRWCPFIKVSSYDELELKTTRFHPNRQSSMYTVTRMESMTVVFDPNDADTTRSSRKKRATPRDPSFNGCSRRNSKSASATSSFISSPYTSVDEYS
OfChi-h: Chitinase (OfChi-h, Ostrinia furnacalis, UniProt Q4AE59)
Uncharacterized protein: Uncharacterized protein (Trypanosoma brucei brucei, UniProt Q386Q8)
Sequence of UniProt Q93009 (whole entry, unmodified, looked up): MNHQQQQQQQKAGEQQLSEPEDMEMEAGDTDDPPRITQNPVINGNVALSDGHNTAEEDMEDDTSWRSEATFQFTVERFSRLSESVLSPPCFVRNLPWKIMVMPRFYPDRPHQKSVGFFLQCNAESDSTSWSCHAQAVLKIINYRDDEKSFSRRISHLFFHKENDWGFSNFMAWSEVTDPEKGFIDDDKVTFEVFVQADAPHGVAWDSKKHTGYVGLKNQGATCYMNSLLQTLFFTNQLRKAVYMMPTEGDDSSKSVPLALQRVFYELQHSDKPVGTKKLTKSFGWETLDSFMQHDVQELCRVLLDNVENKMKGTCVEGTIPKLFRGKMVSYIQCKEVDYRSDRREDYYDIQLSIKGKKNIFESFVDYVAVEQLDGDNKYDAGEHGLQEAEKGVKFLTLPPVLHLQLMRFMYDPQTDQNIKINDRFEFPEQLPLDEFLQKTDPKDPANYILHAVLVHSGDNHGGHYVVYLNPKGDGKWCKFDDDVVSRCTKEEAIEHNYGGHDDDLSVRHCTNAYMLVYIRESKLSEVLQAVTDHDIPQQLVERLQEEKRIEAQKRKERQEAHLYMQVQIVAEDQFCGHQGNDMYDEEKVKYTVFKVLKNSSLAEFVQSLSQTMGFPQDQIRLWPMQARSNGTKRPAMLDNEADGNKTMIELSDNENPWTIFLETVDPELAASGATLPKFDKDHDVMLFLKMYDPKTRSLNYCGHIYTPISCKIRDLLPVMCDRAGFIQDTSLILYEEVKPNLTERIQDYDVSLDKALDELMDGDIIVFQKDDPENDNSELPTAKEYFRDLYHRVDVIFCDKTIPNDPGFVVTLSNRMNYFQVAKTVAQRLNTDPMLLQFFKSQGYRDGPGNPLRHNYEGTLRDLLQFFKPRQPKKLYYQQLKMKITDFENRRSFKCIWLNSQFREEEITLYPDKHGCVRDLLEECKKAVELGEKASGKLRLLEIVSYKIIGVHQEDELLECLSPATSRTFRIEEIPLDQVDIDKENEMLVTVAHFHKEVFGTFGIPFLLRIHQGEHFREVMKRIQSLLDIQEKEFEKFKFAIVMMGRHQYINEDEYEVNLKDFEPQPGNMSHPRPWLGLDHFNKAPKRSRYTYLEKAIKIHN
Sequence of UniProt Q9NR22 (whole entry, looked up): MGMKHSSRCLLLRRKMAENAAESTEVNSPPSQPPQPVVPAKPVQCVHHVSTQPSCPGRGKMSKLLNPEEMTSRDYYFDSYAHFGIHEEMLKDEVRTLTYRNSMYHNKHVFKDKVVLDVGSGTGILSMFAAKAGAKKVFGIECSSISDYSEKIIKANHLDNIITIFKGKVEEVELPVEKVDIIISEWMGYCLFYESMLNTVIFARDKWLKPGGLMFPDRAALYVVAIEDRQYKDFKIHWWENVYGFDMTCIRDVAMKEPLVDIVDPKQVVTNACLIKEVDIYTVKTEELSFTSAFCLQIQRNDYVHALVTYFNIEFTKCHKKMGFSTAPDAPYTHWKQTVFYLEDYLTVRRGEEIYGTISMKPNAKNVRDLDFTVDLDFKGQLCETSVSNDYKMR
Sequence of UniProt Q5JUK3 (whole entry, looked up): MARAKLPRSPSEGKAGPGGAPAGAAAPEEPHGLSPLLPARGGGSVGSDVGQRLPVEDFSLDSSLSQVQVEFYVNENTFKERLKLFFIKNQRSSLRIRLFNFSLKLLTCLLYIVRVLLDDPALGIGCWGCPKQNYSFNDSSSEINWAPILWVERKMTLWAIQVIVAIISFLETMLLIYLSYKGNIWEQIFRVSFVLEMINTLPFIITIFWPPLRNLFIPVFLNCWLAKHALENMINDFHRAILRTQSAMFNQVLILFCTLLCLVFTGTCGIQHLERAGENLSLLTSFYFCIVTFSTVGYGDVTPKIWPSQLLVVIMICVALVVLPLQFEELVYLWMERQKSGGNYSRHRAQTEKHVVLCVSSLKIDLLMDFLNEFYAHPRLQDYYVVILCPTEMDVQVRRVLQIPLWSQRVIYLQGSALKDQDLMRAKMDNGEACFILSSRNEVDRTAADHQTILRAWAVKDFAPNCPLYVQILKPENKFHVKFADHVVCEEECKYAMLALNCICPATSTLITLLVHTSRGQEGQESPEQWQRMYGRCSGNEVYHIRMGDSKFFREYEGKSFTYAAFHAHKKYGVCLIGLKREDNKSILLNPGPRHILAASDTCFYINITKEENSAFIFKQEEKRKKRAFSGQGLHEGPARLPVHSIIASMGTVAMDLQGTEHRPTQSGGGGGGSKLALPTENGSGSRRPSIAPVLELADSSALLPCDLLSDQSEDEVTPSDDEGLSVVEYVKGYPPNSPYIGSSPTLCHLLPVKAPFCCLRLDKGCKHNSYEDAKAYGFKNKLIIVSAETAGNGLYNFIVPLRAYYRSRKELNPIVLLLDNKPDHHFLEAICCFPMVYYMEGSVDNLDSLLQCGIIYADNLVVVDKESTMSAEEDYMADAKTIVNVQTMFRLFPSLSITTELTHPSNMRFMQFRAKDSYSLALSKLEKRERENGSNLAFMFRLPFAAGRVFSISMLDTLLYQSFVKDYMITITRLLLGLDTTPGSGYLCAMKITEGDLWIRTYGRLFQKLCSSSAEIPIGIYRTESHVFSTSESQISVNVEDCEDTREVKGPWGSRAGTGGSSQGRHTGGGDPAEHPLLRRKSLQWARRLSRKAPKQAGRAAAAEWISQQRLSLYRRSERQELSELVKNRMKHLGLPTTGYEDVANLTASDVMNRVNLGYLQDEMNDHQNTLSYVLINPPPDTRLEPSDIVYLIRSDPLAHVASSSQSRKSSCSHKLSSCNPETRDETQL

SMILES | target | test | system | setting | inhibition
Cc1nc2c(F)cc(-c3nc(Nc4ccc(CNC(=O)CCCCCCC(=O)NO)cc4)ncc3F)cc2n1C(C)C | Phosphatidylinositol 4,5-bisphosphate 3-kinase catalytic subunit alpha isoform, with p85 alpha (Pik3ca, Mus musculus, UniProt P42337, H1047R) | enzyme activity | – | 1 µM, p110α(H1047R)/p85α)(m mouse | 21%
Cc1cc(C=NOCc2ccc3nc(-c4ccccc4)c(Nc4ccc(C(=O)O)cc4)n3c2)sc1C | TDP1 | enzyme activity, inhibitor | – | 100 µM, unpurified compound | 17.2%
C=CC(=O)Nc1cc(-c2nn(C3CCN(CCNC(=O)[C@H](C)CCC45CC6CC(CC(C6)C4)C5)CC3)c3ncnc(N)c23)ccc1Oc1ccccc1 | MAP3K21 | inhibitor, KiNativ profiling | biochemical | 2 µM | 0.8%
CC(C)Cn1c(SCC(=O)N2CCc3ccccc3C2)nc2cc(Cl)ccc2c1=O | benzodiazepine site rat | binding | rat brain | 10 µM | 25%
C[C@@H]1CN(Cc2ccccc2)[C@H]2C[C@@H]1CC(=O)[C@@H]2C | Tmem97 (Rattus norvegicus, UniProt Q5U3Y7) | ligand displacement, radioligand | – | 1 µM | 7%
O=C1c2sc(-c3ccc(N4CCC(F)C4)nc3F)nc2CCN1c1cccnc1 (centres unmarked) | OPRK1 (Homo sapiens, UniProt P41145) | ligand displacement, radioligand | – | 1 µM | 6%
Cn1c(C=NOCc2ccc(-c3nc4cc(-c5ccccc5)ccn4c3Nc3ccc(C(=O)O)cc3)cc2)nc2cc([N+](=O)[O-])ccc21 | TDP1 | enzyme activity, inhibitor | – | 100 µM | 79.9%
Oc1cc2c(cc1O)C(c1cccc3[nH]ccc13)NCC2 (centres unmarked) | tyrosinase | enzyme activity, inhibitor | – | 100 µM, added: levodopa | 29.3 ± 0.75%
Cc1cc(C=NOCc2ccc3nc(-c4ccccc4)c(Nc4ccc(C(=O)O)cc4)n3c2)c(C)n1CC1COc2ccccc2O1 (mixture of isomers) | TDP1 | enzyme activity, inhibitor | – | 100 µM, unpurified compound | 37.9%
CC(=O)C1=C(C)Nc2ccccc2S1 | ppa | inhibitor, counter-screen, coupling enzyme alone | – | 30 µM | 31.5%
Cc1[nH]nc2c1N=C(c1ccccc1Cl)c1cnc(N3CCOCC3)cc1N2 | IL1R1 (Homo sapiens, UniProt P14778) | cell-free assay | – | 10 µM | 5%
C[Si](C)(C)C[C@@H](CN)CC(=O)O | TACR3 | ligand displacement, radioligand | – | 75 µM | -5%
O=C(O)c1ccc(Nc2c(-c3ccccc3)nc3ccc(CON=Cc4c(-c5cccc(F)c5)nc5sccn45)cn23)cc1 (mixture of isomers) | TDP1 | enzyme activity, inhibitor | – | 100 µM, unpurified compound | 71.9%
CN(C)c1nc(NCc2ccc(F)cc2)c(/N=N/c2ccc(Cl)cc2)c(N(C)C)n1 | OfChi-h | enzyme activity, inhibitor, fluorescence | – | 1 µM | 89.7%
COc1ccc(C(=O)Nc2c(-c3cccs3)nc3ccccn23)cc1 | CHRM5 (Homo sapiens, UniProt P08912) | ligand displacement, radioligand | – | 10 µM | < 50%
COc1ccc(S(=O)(=O)N2CCc3ccccc3C2)cc1N1CCN(C(=O)c2ccc(F)cc2C(F)(F)F)CC1 | CCKAR (Homo sapiens, UniProt P32238) | ligand displacement, radioligand | – | 1 µM | 5.7%
C[N+](C)(CCCN1c2ccccc2CCc2ccc(Cl)cc21)Cc1ccc2ccccc2c1 | ppa | inhibitor, counter-screen, coupling enzyme alone | – | 30 µM | 46.5%
O=C(Nc1cccc(C(F)(F)F)c1)c1ccc2nc(N3C(=O)c4ccccc4C3=O)sc2c1 | KCNT1 (Homo sapiens, UniProt Q5JUK3) | ion current, inhibitor, patch clamp | HEK293 | 10 µM | > 40%
CC(=O)C12NC(C)(C)CC1(C)C(=O)C1=C2c2c(c3c4n2C(C)(C)CC2=C4C4(CC(C)(C)NC(C)(C4)C2=O)CC3(C)C)C(=O)C(C)(C)N1 (single isomer, unassigned; (-)) | CACNA1I (Homo sapiens, UniProt Q9P0X4) | ion current, antagonist, whole-cell patch clamp | HEK293T | 10 µM | 2.26 ± 0.11%
O=C(CSc1nnc(-c2ccco2)c(-c2ccco2)n1)c1cccs1 | Uncharacterized protein | enzyme activity, inhibitor, coupled colorimetric | – | 30 µM, added: E. coli pyrophosphatase coupling | 23%
Cc1nc(C)c(C=NOCc2ccc(-c3nc4cc(-c5ccccc5)ccn4c3Nc3ccc(C(=O)O)cc3)cc2)s1 | TDP1 | enzyme activity, inhibitor | – | 100 µM, unpurified compound | 39%

SMILES | target | test | system | setting | inhibition
Cc1ccc2c(c1Br)C(O)(CC(=O)c1ccc3c(c1)OCO3)C(=O)N2 (centres unmarked) | ppa | enzyme activity | – | 30 µM | -3.8%
Cc1cc[n+](-c2nc([O-])sc2C=NOCc2ccc3nc(-c4ccccc4)c(Nc4ccc(C(=O)O)cc4)n3c2)cc1 | TDP1 | enzyme activity, inhibitor | – | 100 µM, unpurified compound | -10.6%
N=C(N)NCCCC(NC(=O)C(CC(=O)NO)Cc1ccc2ccccc2c1)C(=O)NC(Cc1c[nH]c2ccccc12)C(=O)NC(CCC(=O)O)C(N)=O (centres unmarked) | Matrix metalloproteinase-19 (Homo sapiens, UniProt Q99542) | – | – | 1 µM | 2%
C[Si]1(C[C@H](CN)CC(=O)O)CCCC1 | TACR3 | ligand displacement, radioligand | – | 70 µM | -12%
OCc1ccc(C2NCCc3cc(O)c(O)cc32)o1 (centres unmarked) | tyrosinase | enzyme activity, inhibitor | – | 100 µM, added: levodopa | 24.1 ± 2.41%
CC(=O)Nc1sc2c(c1SC#N)CCCC2 | Uncharacterized protein | enzyme activity, inhibitor, coupled colorimetric | – | 30 µM, added: E. coli pyrophosphatase coupling | 41.6%
CN(C)C/C=C/C(=O)Nc1ccc2nc(NCCCCCN(C)C)nc(NCCCCCCN(C)C)c2c1 | PRMT8 (Homo sapiens, UniProt Q9NR22) | enzyme activity, inhibitor, radiometric | – | 50 µM | 87%
CC(=NOCc1ccc(-c2nc3cc(-c4ccccc4)ccn3c2Nc2ccc(C(=O)O)cc2)cc1)c1ccccc1O | TDP1 | enzyme activity, inhibitor | – | 100 µM, unpurified compound | 59.4%
O=C1c2sc(-c3ccc(N4CCC(CO)CC4)nc3F)nc2CCN1c1cccnc1 | GABA-A receptor; GABA-A site (alpha1/beta2 interface), with gamma-2 subunit (Homo sapiens, UniProt P14867+P47870) | radioligand binding | – | 1 µM, added: agonist radioligand | -9%
CS(=O)(=O)Nc1cccc(-c2csc3cnc(Nc4ccc(N5CCN(CCCCCOc6cccc7c6C(=O)N(C6CCC(=O)NC6=O)C7=O)CC5)cc4)nc23)c1 (centres unmarked) | MAP3K21 | probe labelling, inhibitor, KiNativ chemoproteomics | MOLT-4 | 1 µM | 32.4%
CNc1sc(C(=O)c2ccc(OC)cc2)c(N)c1C#N | Uncharacterized protein | enzyme activity, inhibitor, coupled colorimetric | – | 30 µM, added: E. coli pyrophosphatase coupling | 28.5%
CN(Cc1ccc(/C=C/C(=O)NO)cc1)CC12CC3CC(CC(C3)C1)C2 | human M1 receptor | antagonist radioligand binding | – | 0.05 µM | -5%
COc1ncc2nc(C)n(Cc3ncc(S(N)(=O)=O)cc3F)c2c1-c1ccccc1 | PDE4D (Homo sapiens, UniProt Q08499) | enzyme activity, inhibitor | – | 10 µM, safety panel | -5.26%
COc1ccc(Br)cc1C[N+](C)(C)CCCN1c2ccccc2CCc2ccc(Cl)cc21 | Uncharacterized protein | enzyme activity, inhibitor, coupled colorimetric | – | 30 µM, added: E. coli pyrophosphatase coupling | 39.9%
CC1=NN(c2ccccc2F)C(=O)/C1=N\Nc1ccc(S(N)(=O)=O)cc1 | bovine α-glucosidase | enzyme activity, inhibitor, glucose oxidase | – | 100 µg/mL, added: maltose | 38.5%
CN(C)c1nc(NCc2ccc(F)c(C(F)(F)F)c2)c(/N=N/c2ccc(Cl)cc2)c(N(C)C)n1 | OfChi-h | enzyme activity, inhibitor, fluorescence | – | 1 µM | 85.1%
CO[C@@H](C)c1c(NC(=O)Nc2cnc(-n3nccn3)c(C(F)(F)F)c2)cnc2sc(C)nc12 | NTSR1 (Homo sapiens, UniProt P30989) | ligand displacement, radioligand | – | 10 µM | -6.1%
CCc1c(-c2ccc3[nH]ncc3c2)cnc(N)c1-c1ccc(O)cc1 | USP7 (Homo sapiens, UniProt Q93009, V517F) | enzyme activity, inhibitor | – | 50 µM | 60.2% and 42.7%
CN(C)c1ccc(C=NOCc2ccc(-c3nc4cc(-c5ccccc5)ccn4c3Nc3ccc(C(=O)O)cc3)cc2)cc1 (mixture of isomers) | TDP1 | enzyme activity, inhibitor | – | 100 µM, unpurified compound | 40.9%
COc1ccc(NC2(C#N)C(=O)Nc3ccccc32)cc1 (centres unmarked) | ppa | inhibitor, counter-screen, coupling enzyme alone | – | 30 µM | 49.2%
